Earlier results, collected from citations in different studies.
Each line is one published result; not all experiments were run side by side. Numbers after ± are the reported error.

| SMILES | tested on | test | test system | conditions | quantity | value |
| --- | --- | --- | --- | --- | --- | --- |
| C=CC(O)c1ccc(OC)cc1 (centres unmarked) | – | – | male rat, kidney microsomes | – | Km | 22 µM |
| CCCCC#Cc1nc(N)c2ncn([C@@H]3SC[C@@H](O)[C@H]3O)c2n1 | ADORA1 (Homo sapiens, UniProt P30542) | – | – | 10 µM | inhibition | 39 ± 10% |
| Cc1ccc(-c2nc3ccc(NC(=O)CCl)cc3[nH]2)cc1 | EGFR | inhibitor | – | concentration not given | inhibition | 88% |
| CCOC(=O)CNC(=O)CN1C(=O)S/C(=C\c2ccc(C)cc2)C1=O | α-glucosidase | enzyme activity | – | 100 µM | inhibition | 51.3 ± 3.62% |
| CC(C)(C)CCN1C[C@@H]2[C@@H](CNC(=O)c3cc(Cl)cc(Cl)c3)[C@@H]2C1.Cl | Cav1.4 channel | calcium current | cone photoreceptors | 5 µM, not significant | inhibition | 5 to 10% |
| CCC1=C(O)c2c(oc(-c3ccc(OC)c4ccccc34)cc2=O)C(CC)(CC)C1=O | Tubulin alpha-1B chain/TUBB2B (Bos taurus, UniProt P81947+Q6B856) | – | – | concentration not given | inhibition | 31% |
| CC(C)C(=O)Nc1c(NC[C@H](O)[C@H](O)[C@H](O)CO)[nH]c(=O)[nH]c1=O | 6,7-dimethyl-8-ribityllumazine synthase (rib4, Schizosaccharomyces pombe, UniProt Q9UUB1) | enzyme kinetics | – | pH 7.0 | kcat | 0.0158 ± 0.000333 s⁻¹ |
| COc1ccc(Nc2nn3c(N)c(C#N)c(-c4ccccc4OC)nc3c2C(N)=O)cc1 | proteinase | enzyme activity | – | concentration not given | inhibition | 26.42 ± 0.06% |
| C=CC(=O)N1CCC[C@@H](n2nc(-c3cccc4ccccc34)c3c(N)ncnc32)C1 | EGFR (Homo sapiens, UniProt P00533) | – | – | – | kinact | 0.13 ± 0.05 min⁻¹ |
| C=CCC(=N)NCCC[C@H](N)C(=O)O | Nos1 (Rattus norvegicus, UniProt P29476) | NMDA-evoked cGMP accumulation | – | 0.1 µM | inhibition | 80 to 90% |
| CCOC(=O)C(=O)Nc1c(NC[C@H](O)[C@H](O)[C@H](O)CO)[nH]c(=O)[nH]c1=O | ribH (Mycobacterium tuberculosis, UniProt P9WHE9) | – | – | pH 7.0 | Ki (uncompetitive, ESI) | 35 ± 14 µM |
| CCOC(=O)C(NC(=O)CN1C(=O)/C(=C/c2ccc([N+](=O)[O-])cc2)SC1=S)C(C)C (centres unmarked) | α-glucosidase | enzyme activity | – | 100 µM | inhibition | 20.8 ± 13.9% |
| CNCCNC(=O)CN1C(=O)Cc2c([nH]c3ccc(Br)cc23)-c2ccc(Cl)cc21 | Trypanothione synthetase (Trypanosoma cruzi, UniProt Q9GT49) | enzyme activity | – | 30 µM | inhibition | 40 to 60% |
| CCOC(=O)C(NC(=O)CN1C(=O)N/C(=C\c2ccc3c(c2)OCO3)C1=O)C(C)C (centres unmarked) | α-glucosidase | enzyme activity | – | 200 µM | inhibition | 57.4 ± 2.79% |
| C[C@@H]1O[C@@H](Oc2c(-c3cc(O)c(O)c(O)c3)oc3cc(O)cc(O)c3c2=O)[C@H](O[C@@H]2O[C@H](COC(=O)/C=C/c3ccc(O)c(O)c3)[C@@H](O)[C@H](O)[C@H]2O)[C@H](O)[C@H]1O | Sucrase-isomaltase, intestinal, C-terminal sucrase domain (SI, Homo sapiens, UniProt P14410) | – | – | concentration not given | inhibition | inhibited |
| CCOC(=O)C(CC)NC(=O)CN1C(=O)S/C(=C\c2ccc([N+](=O)[O-])cc2)C1=O (centres unmarked) | α-glucosidase | enzyme activity | – | 100 to 200 µM | inhibition | inactive |
| COCCOCCOCCOCCC(=O)NCc1cc(CNC(=O)CCOCCOCCOCCOC)cc(-c2cc3cc4nc(c(OC)c5[nH]c(cc6nc(cc2[nH]3)CC6(C)C)cc5-c2cc(CNC(=O)CCOCCOCCOCCOC)cc(CNC(=O)CCOCCOCCOCCOC)c2)CC4(C)C)c1 | – | – | PBS | room temperature | internal conversion yield | 0.44 |
